Results gathered from unrelated publications.
Protocols differ between the studies behind these lines. ± gives the spread as reported.

Structure (SMILES)	target or system	assay	test system	conditions	how to read	measurement	value
CNC(=O)[C@@H](NC(=O)[C@H](CC(C)C)[C@H](O)C(=O)NO)C(C)(C)C	human fibrinogen	SDS-PAGE	Daboia russelii	concentration not given, unit not given, with: TN venom	relative to: untreated fibrinogen	remaining fibrinogen γ chain	0.251
O=C(N1CCC2(CC1)CC(Nc1ccccc1)CCO2)C1(c2ccccc2)CCCC1 (stereo not shown)	Venezuelan equine encephalitis virus	viral replication	–	–	–	EC50	15.8 µM
O=C(N1CCC2(CC1)C[C@H](CN1CCCCS1(=O)=O)CCO2)C1(c2ccccc2)CCCC1	Yellow fever virus	viral replication	Huh-7	–	–	EC50	> 32 µM
CCCCCC(=O)NCC1CCOC2(CCN(C(=O)C3(c4ccccc4)CCCC3)CC2)C1 (stereo not shown)	Venezuelan equine encephalitis virus	viral replication	–	–	–	EC50	12.6 µM
Cn1cnc(Cn2c(=O)[nH]/c(=N\c3cc4cn(C)nc4cc3Cl)n(Cc3cc(F)c(F)cc3F)c2=O)n1	–	–	human, normal renal function, plasma	oral, 375 mg single dose, 24 h	–	unbound fraction	0.0118
CC(C)(C)[C@H](NC(=O)C(F)(F)F)C(=O)N1C[C@H]2[C@@H]([C@H]1C(=O)N[C@H](C#N)C[C@@H]1CCNC1=O)C2(C)C	–	–	human, fasted	oral, 150 mg single dose, 28 days, no ritonavir	–	participants with severe adverse events	0%
O=C(NCC1CCOC2(CCN(C(=O)C3(c4ccccc4)CCCC3)CC2)C1)C1CC1 (stereo not shown)	Venezuelan equine encephalitis virus	viral replication	–	–	–	EC50	> 39.8 µM
CNCC(O)CC12CCC(c3ccccc31)c1ccccc12 (stereo not shown)	SARS-CoV-2	viral replication, GFP plate reader screen	–	cell-based	–	EC50	> 100 µM
NC(=O)c1ncn([C@@H]2O[C@H](CO)[C@@H](O)[C@H]2O)n1	Rift Valley fever virus	viral replication	MDCK	–	–	EC50	17 µM
Nc1nc2nn[nH]c2c(=O)[nH]1	SARS-CoV-2	viral replication, GFP plate reader screen	–	cell-based	–	EC50	> 50.1 µM
CC[C@H](C)[C@H](NC(=O)[C@H](CC(C)C)NC(=O)[C@H](Cc1c[nH]c2ccccc12)NC(=O)[C@H](CCC(N)=O)NC(=O)[C@@H](NC(=O)[C@H](Cc1ccccc1)NC(=O)[C@H](C)NC(=O)[C@H](CCCCNC(=O)COCCOCCNC(=O)COCCOCCNC(=O)CC[C@H](NC(=O)CCCCCCCCCCCCCCCCCCC(=O)O)C(=O)O)NC(=O)[C@H](CCC(N)=O)NC(=O)[C@H](C)NC(=O)[C@@H](NC(=O)[C@H](CCCCN)NC(=O)[C@H](CC(=O)O)NC(=O)[C@H](CC(C)C)NC(=O)C(C)(C)NC(=O)[C@@H](NC(=O)[C@H](CO)NC(=O)[C@H](Cc1ccc(O)cc1)NC(=O)[C@H](CC(=O)O)NC(=O)[C@H](CO)NC(=O)[C@@H](NC(=O)[C@H](Cc1ccccc1)NC(=O)[C@@H](NC(=O)CNC(=O)[C@H](CCC(=O)O)NC(=O)C(C)(C)NC(=O)[C@@H](N)Cc1ccc(O)cc1)[C@@H](C)O)[C@@H](C)O)[C@@H](C)CC)[C@@H](C)CC)C(C)C)C(=O)N[C@@H](C)C(=O)NCC(=O)NCC(=O)N1CCC[C@H]1C(=O)N[C@@H](CO)C(=O)N[C@@H](CO)C(=O)NCC(=O)N[C@@H](C)C(=O)N1CCC[C@H]1C(=O)N1CCC[C@H]1C(=O)N1CCC[C@H]1C(=O)N[C@@H](CO)C(N)=O	–	–	human, plasma	subcutaneous, 5.0 mg once weekly, week 7, multiple doses	–	terminal half-life	139 h
NC(=O)c1nc(F)c[nH]c1=O	yellow fever virus	viral replication	BHK-21	72 h	–	EC50	24 µM
CCCCOc1cc(C(=O)NCCN(CC)CC)c2ccccc2n1	SARS-CoV-2	viral replication, GFP plate reader screen	–	cell-based	–	EC50	29.1 µM
CCc1c(C(=O)C(N)=O)c2c(OCC(=O)O)cccc2n1Cc1ccccc1	Daboia russelii	–	C2C12	100 µM, with: Daboia russelii venom KL	relative to: venom alone	viability difference	-64.1%
CC[C@H](C)[C@H](NC(=O)[C@H](CC(C)C)NC(=O)[C@H](Cc1c[nH]c2ccccc12)NC(=O)[C@H](CCC(N)=O)NC(=O)[C@@H](NC(=O)[C@H](Cc1ccccc1)NC(=O)[C@H](C)NC(=O)[C@H](CCCCNC(=O)COCCOCCNC(=O)COCCOCCNC(=O)CC[C@H](NC(=O)CCCCCCCCCCCCCCCCCCC(=O)O)C(=O)O)NC(=O)[C@H](CCC(N)=O)NC(=O)[C@H](C)NC(=O)[C@@H](NC(=O)[C@H](CCCCN)NC(=O)[C@H](CC(=O)O)NC(=O)[C@H](CC(C)C)NC(=O)C(C)(C)NC(=O)[C@@H](NC(=O)[C@H](CO)NC(=O)[C@H](Cc1ccc(O)cc1)NC(=O)[C@H](CC(=O)O)NC(=O)[C@H](CO)NC(=O)[C@@H](NC(=O)[C@H](Cc1ccccc1)NC(=O)[C@@H](NC(=O)CNC(=O)[C@H](CCC(=O)O)NC(=O)C(C)(C)NC(=O)[C@@H](N)Cc1ccc(O)cc1)[C@@H](C)O)[C@@H](C)O)[C@@H](C)CC)[C@@H](C)CC)C(C)C)C(=O)N[C@@H](C)C(=O)NCC(=O)NCC(=O)N1CCC[C@H]1C(=O)N[C@@H](CO)C(=O)N[C@@H](CO)C(=O)NCC(=O)N[C@@H](C)C(=O)N1CCC[C@H]1C(=O)N1CCC[C@H]1C(=O)N1CCC[C@H]1C(=O)N[C@@H](CO)C(N)=O	–	–	healthy subjects, single ascending dose	8.0 mg, titre ≥1:20	–	treatment-induced ADA positive subjects	0%
COc1cc(Br)c2oc(C3CCNCC3)cc2c1	SARS-CoV-2	viral replication, high-content imaging screen	–	cell-based	–	EC50	> 100 µM
O=c1ccn([C@@H]2O[C@](F)(CO)[C@@H](O)[C@H]2O)c(=O)[nH]1	Mammarenavirus lassaense	viral replication	HeLa	–	–	EC50	2.58 µM
Nc1ncnc2c([C@@H]3N[C@H](CO)[C@@H](O)[C@H]3O)c[nH]c12	Marburg virus	–	HeLa, Musoke	0.4 µM, 1 h	–	viral RNA copies	2.48e+07 copies/mL
O=C(NCC1CCOC2(CCN(C(=O)C3(c4ccccc4)CCCC3)CC2)C1)c1ccccn1 (stereo not shown)	Venezuelan equine encephalitis virus	viral replication	–	–	–	EC50	12.6 µM
COC(=O)N[C@H](C(=O)N1CCC[C@H]1c1ncc(-c2ccc3cc(-c4ccc5nc([C@@H]6CCCN6C(=O)[C@@H](NC(=O)OC)C(C)C)[nH]c5c4)ccc3c2)[nH]1)C(C)C	SARS-CoV-2	viral replication, GFP plate reader screen	–	cell-based	–	EC50	> 100 µM
CCCCCCOc1ccc(C(=O)NCC2CCOC3(CCN(C(=O)C4(c5ccccc5)CCCC4)CC3)C2)cc1 (stereo not shown)	Venezuelan equine encephalitis virus	viral replication	–	–	–	EC50	> 39.8 µM
O=C1c2c(O)c(=O)ccn2N([C@@H]2c3ccccc3SCc3c2ccc(F)c3F)[C@@H]2COCCN12	Influenza A virus	viral replication	A(H7N7) A/environment/Bangladesh/41896/2019	mean	–	EC50	0.00028 ± 7e-05 µM

Excerpt of the above:
Structure (SMILES)	target or system	assay	test system	conditions	how to read	measurement	value
Nc1ncnc2c([C@@H]3N[C@H](CO)[C@@H](O)[C@H]3O)c[nH]c12	Marburg virus	–	HeLa, Musoke	0.4 µM, 1 h	–	viral RNA copies	2.48e+07 copies/mL
Nc1nc2nn[nH]c2c(=O)[nH]1	SARS-CoV-2	viral replication, GFP plate reader screen	–	cell-based	–	EC50	> 50.1 µM
CC[C@H](C)[C@H](NC(=O)[C@H](CC(C)C)NC(=O)[C@H](Cc1c[nH]c2ccccc12)NC(=O)[C@H](CCC(N)=O)NC(=O)[C@@H](NC(=O)[C@H](Cc1ccccc1)NC(=O)[C@H](C)NC(=O)[C@H](CCCCNC(=O)COCCOCCNC(=O)COCCOCCNC(=O)CC[C@H](NC(=O)CCCCCCCCCCCCCCCCCCC(=O)O)C(=O)O)NC(=O)[C@H](CCC(N)=O)NC(=O)[C@H](C)NC(=O)[C@@H](NC(=O)[C@H](CCCCN)NC(=O)[C@H](CC(=O)O)NC(=O)[C@H](CC(C)C)NC(=O)C(C)(C)NC(=O)[C@@H](NC(=O)[C@H](CO)NC(=O)[C@H](Cc1ccc(O)cc1)NC(=O)[C@H](CC(=O)O)NC(=O)[C@H](CO)NC(=O)[C@@H](NC(=O)[C@H](Cc1ccccc1)NC(=O)[C@@H](NC(=O)CNC(=O)[C@H](CCC(=O)O)NC(=O)C(C)(C)NC(=O)[C@@H](N)Cc1ccc(O)cc1)[C@@H](C)O)[C@@H](C)O)[C@@H](C)CC)[C@@H](C)CC)C(C)C)C(=O)N[C@@H](C)C(=O)NCC(=O)NCC(=O)N1CCC[C@H]1C(=O)N[C@@H](CO)C(=O)N[C@@H](CO)C(=O)NCC(=O)N[C@@H](C)C(=O)N1CCC[C@H]1C(=O)N1CCC[C@H]1C(=O)N1CCC[C@H]1C(=O)N[C@@H](CO)C(N)=O	–	–	human, plasma	subcutaneous, 5.0 mg once weekly, week 7, multiple doses	–	terminal half-life	139 h
